Results pooled from the literature.
Numbered parts are unrelated; each lists some results of a single study. Substitutions count along the parent as printed.

Study 1
Target: NFE2L1, bZIP domain (human)
Technique: DHFR protein complementation
Matrix: yeast
Notes: single substitutions, most at no-binding floor
Reference: wild-type JUN-FOS pair
Direction: higher = stronger binding
Quantity: binding fitness
Parent: JUN, bZIP domain (human); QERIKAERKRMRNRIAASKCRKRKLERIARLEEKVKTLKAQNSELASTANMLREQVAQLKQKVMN; partner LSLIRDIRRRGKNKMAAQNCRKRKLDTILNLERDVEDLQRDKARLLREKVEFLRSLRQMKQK
T48R: -1.28 natural log
Q41E: -1.13 natural log
A49Q: -1.67 natural log
L31H: -1.5 natural log
I28Y: -1.33 natural log
E54N: -1.46 natural log
A57T: -1.4 natural log
T37S: -1.53 natural log
V56R: -1.2 natural log
S43N: -1.53 natural log
R53D: -1.51 natural log
Q55C: -1.39 natural log
L38H: -1.45 natural log
N42M: -1.47 natural log
E54K: -1.43 natural log
E33D: -1.23 natural log
T48Q: -1.52 natural log
K39D: -1.49 natural log
E33C: -1.47 natural log
Q41D: -1.45 natural log
R30F: -1.53 natural log
E44V: -1.52 natural log
K39G: -1.43 natural log
L31F: -1.3 natural log
E33N: -1.48 natural log

Study 2
Target: ABI1, truncated, D143A, DHFR fusion (Arabidopsis thaliana)
Technique: DHFR PCA, deep sequencing
Matrix: yeast
Notes: methotrexate growth selection, single substitutions
With: (+)-ABA 0.032 µM
Reference: wild-type fitted maximum
Direction: higher = stronger binding
Quantity: relative binding score
Parent: PYL1, truncated, DHFR fusion (Arabidopsis thaliana); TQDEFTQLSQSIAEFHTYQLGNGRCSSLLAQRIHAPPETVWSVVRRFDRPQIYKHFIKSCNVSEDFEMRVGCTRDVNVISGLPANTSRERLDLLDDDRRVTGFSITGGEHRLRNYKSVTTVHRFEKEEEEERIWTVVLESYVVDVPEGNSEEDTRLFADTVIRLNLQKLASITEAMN; partner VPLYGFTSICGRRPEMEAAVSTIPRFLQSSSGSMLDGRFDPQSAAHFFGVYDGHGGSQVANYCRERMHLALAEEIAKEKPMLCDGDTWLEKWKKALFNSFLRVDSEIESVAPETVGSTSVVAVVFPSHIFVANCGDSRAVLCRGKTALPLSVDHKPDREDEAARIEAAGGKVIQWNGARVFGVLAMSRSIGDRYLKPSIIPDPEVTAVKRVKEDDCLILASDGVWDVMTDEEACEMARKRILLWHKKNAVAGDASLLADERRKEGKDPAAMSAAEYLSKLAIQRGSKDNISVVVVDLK
R69I: 16.2%
V76W: -1.51%
A84C: 38.5%
D97H: 13%
V62W: -3%
S42V: 0.2%
S11T: 24.1%
R90P: -5.51%
K126A: 63.6%
I172S: -1.36%
N22P: 57.3%
R74E: -1.51%
V76G: -0.197%
N177L: 18.5%
V76C: -1.12%
E89Q: 5.6%
R90S: -3.86%

Study 3
Target: CCND3, cyclin fold, Cln2 fusion (human)
Technique: yeast growth competition, sequencing
Matrix: yeast
Notes: weak parent motif
Reference: not given
Direction: higher = stronger binding
Quantity: normalised enrichment score
Parent: BRCA2 docking peptide (human); PSIKRNLLNEFDR
N6T: 0.149
R5A L7A: 0.202
N6G: -0.038
L7V: 0.0239
P1G: 0.102
I3L: 0.152
E10W: 0.144
R13N: 0.0898
R13G: 0.125
K4S: 0.131
L8T: 0.101
S2Y: 0.124
R5V: 0.0684
R13T: 0.176
L8S: 0.155
R13M: 0.0646
E10C: 0.0966
F11S: -0.168
D12E: 0.198
N9E: 0.0864
R13P: 0.0618
F11H: 0.0938
R13L: 0.0135
P1F: 0.11
R5F: 0.0669

Study 4
Target: Histone acetyltransferase KAT6A, winged helix 1, GST fusion (KAT6A, Homo sapiens, UniProt Q92794, residues 1-85)
Technique: protein binding microarray
Molecule type: double-stranded DNA, one strand shown
Matrix: in vitro
Concentration: not given
Notes: 8-mer, flanks averaged, mean of 2 arrays, mostly near background
Reference: not given
Direction: higher = stronger binding
Quantity: E-score
Target sequence (chain): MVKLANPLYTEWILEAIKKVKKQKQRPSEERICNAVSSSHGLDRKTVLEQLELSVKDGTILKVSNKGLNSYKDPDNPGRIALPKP
AGTCTGTG: -0.278
CCTATCAA: -0.131
CACTCGGC: 0.255
GTGCACAA: -0.216
CGATTACC: 0.141
AGGCACAT: -0.137
GGACTATA: 0.00594
CAAGAAGG: -0.0713
CTCGAGTA: -0.0951
GAAACGTA: -0.0741
CCCCTACA: -0.154
CGTCTTTC: 0.0851
AATAAAAA: -0.017
AAATCGAC: 0.048
AAGGAATC: -0.0942
